Measured values gathered from unrelated publications.
Each numbered part is a random draw from the data of one study; scales do not carry over between parts. Values joined by “and” are separate records of one study, mostly repeats; a detail may differ.

Set 1
Structure (SMILES): Cn1cc(-c2cccc(CN3CCC4(CC3)COc3c4ccc4c3CN([C@H]3CCC(=O)NC3=O)C4=O)c2)cn1
Host: Crbn I391V mouse, MC-38 tumour
| conditions | tumour volume |
| --- | --- |
| oral, daily, 30 mg/kg, day 8, anti-PD1 combination study | 266 mm3 and 418 mm3 and 217 mm3 and 347 mm3 and 405 mm3 |
| 30 mg/kg, day 4, added: anti-LAG3 antibody 10 mg/kg weekly | 104 mm3 and 116 mm3 and 110 mm3 and 118 mm3 and 248 mm3 |
| oral, daily, 30 mg/kg, day 5, anti-PD1 combination study | 233 mm3 and 247 mm3 and 200 mm3 and 269 mm3 and 220 mm3 |
| 30 mg/kg, day 6, added: anti-LAG3 antibody 10 mg/kg weekly | 106 mm3 and 563 mm3 and 172 mm3 and 434 mm3 and 169 mm3 |
| oral, 30 mg/kg once daily, day 1 | 105 mm3 and 100 mm3 and 103 mm3 and 115 mm3 and 85.7 mm3 |
| 30 mg/kg, day 15, added: anti-LAG3 antibody 10 mg/kg weekly | 267 mm3 and 477 mm3 and 260 mm3 and 53.3 mm3 and 988 mm3 and 992 mm3 and 353 mm3 and 947 mm3 |
| oral, 30 mg/kg once daily, day 22 | 45.6 mm3 and 531 mm3 and 81.5 mm3 and 16.7 mm3 and 196 mm3 |

Set 2
Target: Sodium-dependent neutral amino acid transporter B(0)AT1 (SLC6A19, Homo sapiens, UniProt Q695T7)
UniProt Q695T7, sequence (whole entry, looked up): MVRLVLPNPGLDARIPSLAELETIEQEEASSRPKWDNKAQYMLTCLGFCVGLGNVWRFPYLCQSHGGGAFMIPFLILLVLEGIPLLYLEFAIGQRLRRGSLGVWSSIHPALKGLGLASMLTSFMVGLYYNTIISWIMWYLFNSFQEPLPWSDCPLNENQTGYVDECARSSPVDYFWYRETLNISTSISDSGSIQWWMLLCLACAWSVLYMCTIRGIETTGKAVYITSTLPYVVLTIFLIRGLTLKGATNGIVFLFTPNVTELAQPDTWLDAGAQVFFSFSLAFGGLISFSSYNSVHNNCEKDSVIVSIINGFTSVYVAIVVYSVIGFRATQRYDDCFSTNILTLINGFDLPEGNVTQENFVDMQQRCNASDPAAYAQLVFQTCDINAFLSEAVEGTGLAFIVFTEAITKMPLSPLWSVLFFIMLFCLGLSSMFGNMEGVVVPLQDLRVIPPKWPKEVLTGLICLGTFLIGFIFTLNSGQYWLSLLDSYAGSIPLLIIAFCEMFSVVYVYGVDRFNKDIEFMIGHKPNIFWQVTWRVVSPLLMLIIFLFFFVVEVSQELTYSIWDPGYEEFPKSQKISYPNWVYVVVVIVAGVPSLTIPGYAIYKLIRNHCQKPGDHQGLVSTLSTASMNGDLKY
Technique: FLIPR membrane potential
Cells: CHO-BC
Concentration: concentration not given
Baseline: background subtracted
| SMILES | remaining activity |
| --- | --- |
| Cc1cc(OCC(=O)NC(C)C)ccc1Br | -2.68% |
| Cc1cc(OCC(=O)NC(C)C)cc(C)c1I | 4.9% |
| CC(C)NC(=O)COc1ccc(Cl)cc1 | 34.5% |
| Cc1cc(OCC(=O)NC(C)C)ccc1I | -3.23% |
| COc1ccc(SCC(=O)NC(C)C)cc1 | 79.6% |
| CC(C)NC(=O)COc1ccc(I)cc1 | 9.31% |
| CC(C)NC(=O)COc1cccc2ccccc12 | 9.77% |
| CC(C)NC(=O)COc1ccc(Br)cc1 | 21.3% |

Set 3
Target: Cyclin-dependent kinase 12, with cyclin K (CDK12, Homo sapiens, UniProt Q9NYV4)
UniProt Q9NYV4, sequence (whole entry, looked up): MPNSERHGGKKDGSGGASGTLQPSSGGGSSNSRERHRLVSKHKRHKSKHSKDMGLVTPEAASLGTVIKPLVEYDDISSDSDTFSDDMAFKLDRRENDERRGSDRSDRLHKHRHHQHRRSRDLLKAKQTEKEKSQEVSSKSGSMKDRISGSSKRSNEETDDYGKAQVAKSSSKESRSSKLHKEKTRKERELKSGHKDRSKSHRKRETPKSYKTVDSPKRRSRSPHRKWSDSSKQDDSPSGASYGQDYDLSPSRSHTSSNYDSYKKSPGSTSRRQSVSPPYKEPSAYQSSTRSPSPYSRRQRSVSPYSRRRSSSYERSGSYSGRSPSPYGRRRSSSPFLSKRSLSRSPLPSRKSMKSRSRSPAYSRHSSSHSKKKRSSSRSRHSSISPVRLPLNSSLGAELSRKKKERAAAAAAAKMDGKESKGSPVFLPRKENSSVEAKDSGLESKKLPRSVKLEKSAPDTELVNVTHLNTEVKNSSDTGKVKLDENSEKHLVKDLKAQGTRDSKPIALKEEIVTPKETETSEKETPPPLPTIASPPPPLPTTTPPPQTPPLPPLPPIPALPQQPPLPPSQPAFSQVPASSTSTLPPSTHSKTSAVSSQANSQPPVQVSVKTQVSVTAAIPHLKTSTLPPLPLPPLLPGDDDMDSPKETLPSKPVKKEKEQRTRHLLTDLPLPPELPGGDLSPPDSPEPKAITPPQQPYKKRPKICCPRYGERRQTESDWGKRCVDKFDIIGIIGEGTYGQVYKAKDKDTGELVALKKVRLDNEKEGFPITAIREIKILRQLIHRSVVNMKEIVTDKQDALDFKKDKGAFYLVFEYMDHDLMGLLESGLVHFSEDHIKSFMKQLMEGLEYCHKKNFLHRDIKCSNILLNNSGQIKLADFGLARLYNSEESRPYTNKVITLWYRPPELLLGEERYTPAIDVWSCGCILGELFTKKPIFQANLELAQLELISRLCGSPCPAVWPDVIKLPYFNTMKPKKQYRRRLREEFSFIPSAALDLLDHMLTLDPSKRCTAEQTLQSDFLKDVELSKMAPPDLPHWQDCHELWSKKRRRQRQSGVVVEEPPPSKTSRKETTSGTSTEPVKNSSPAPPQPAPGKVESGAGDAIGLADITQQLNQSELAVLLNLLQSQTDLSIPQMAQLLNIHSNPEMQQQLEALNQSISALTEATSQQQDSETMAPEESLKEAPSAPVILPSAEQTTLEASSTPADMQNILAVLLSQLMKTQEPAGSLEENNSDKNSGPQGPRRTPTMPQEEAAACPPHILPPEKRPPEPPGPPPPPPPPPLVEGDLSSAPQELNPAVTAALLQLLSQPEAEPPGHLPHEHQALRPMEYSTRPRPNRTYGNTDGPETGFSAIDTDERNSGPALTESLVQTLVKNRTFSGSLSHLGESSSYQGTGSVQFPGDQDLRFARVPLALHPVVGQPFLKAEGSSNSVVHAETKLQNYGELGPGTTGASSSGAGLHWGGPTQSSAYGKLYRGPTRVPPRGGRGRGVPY
Effect on: kinase activity
Action: inhibitor
Technique: ADP-Glo
Concentration: 0.0009 µM
| SMILES | inhibition |
| --- | --- |
| CCn1cnc2c(NCc3nc4cc(Cl)c(Cl)cc4[nH]3)nc(N3CCN(C(=O)c4cccnc4)CC3)nc21 | -10.8% |
| CCn1cnc2c(NCc3nc4cc(Cl)c(Cl)cc4[nH]3)nc(N3CCC(NC(C)=O)CC3)nc21 | -6.5% |
| CCn1cnc2c(NCc3nc4cc(Cl)c(Cl)cc4[nH]3)nc(N3CCN(Cc4ccncc4)CC3)nc21 | -11.2% |
| CCn1cnc2c(NCc3nc4cc(Cl)c(Cl)cc4[nH]3)nc(N3CCN(C(=O)[C@H](C)NC(C)=O)CC3)nc21 | -20.8% |
| CCCCOc1nc(NCc2nc3cc(Cl)c(Cl)cc3[nH]2)c2ncn(CC)c2n1 | 12% |
| CCn1cnc2c(NCc3nc4cc(Cl)c(Cl)cc4[nH]3)nc(N3CCN(C(=O)c4ccccc4)CC3)nc21 | -18.1% |
| CC(=O)N1CCN(c2nc(NCc3nc4cc(Cl)c(Cl)cc4[nH]3)c3ncn(-c4cnn(C)c4)c3n2)CC1 | -6.5% |
| CCn1cnc2c(NCc3nc4cc(Cl)c(Cl)cc4[nH]3)nc(N3CCn4ncnc4C3)nc21 | 15.7% |

Mixed results
| Compound | cell line | conditions | endpoint | value |
| --- | --- | --- | --- | --- |
| CO[C@H]1CC[C@H](CNc2ccc(S(=O)(=O)NC(=O)c3ccc(N4CCN(CC5=C(c6ccc(Cl)cc6)CC(C)(C)CC5)CC4)cc3Oc3cnc4[nH]ccc4c3)cc2[N+](=O)[O-])CC1 | colorectal cancer organoid sample I | 4 days | IC50 | > 10 µM |
